Measurements of several laboratories.
Each numbered part is a random draw from the data of one study; scales do not carry over between parts. “And” joins repeats or separate records; there may be more than shown.
UniProt P05164, sequence (whole entry, looked up): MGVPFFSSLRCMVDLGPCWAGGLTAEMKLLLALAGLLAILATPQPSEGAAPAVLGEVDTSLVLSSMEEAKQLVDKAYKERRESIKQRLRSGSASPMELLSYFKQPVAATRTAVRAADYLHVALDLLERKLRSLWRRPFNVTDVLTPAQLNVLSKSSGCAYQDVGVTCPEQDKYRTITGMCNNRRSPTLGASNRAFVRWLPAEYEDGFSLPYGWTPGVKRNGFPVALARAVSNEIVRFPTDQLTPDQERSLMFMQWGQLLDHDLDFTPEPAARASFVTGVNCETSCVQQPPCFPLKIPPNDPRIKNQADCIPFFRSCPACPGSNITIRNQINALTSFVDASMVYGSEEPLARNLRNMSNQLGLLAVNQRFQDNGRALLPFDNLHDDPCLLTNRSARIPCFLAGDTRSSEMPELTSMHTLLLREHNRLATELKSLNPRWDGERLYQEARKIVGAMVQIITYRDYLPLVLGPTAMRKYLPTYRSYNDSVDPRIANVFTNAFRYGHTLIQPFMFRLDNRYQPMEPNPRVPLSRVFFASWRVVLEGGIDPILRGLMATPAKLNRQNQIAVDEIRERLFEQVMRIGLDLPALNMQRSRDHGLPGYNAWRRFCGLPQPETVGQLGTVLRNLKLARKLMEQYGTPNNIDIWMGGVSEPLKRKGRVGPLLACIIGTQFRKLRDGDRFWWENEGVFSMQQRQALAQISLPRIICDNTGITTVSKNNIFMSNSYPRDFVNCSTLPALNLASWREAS
UniProt O70423, sequence (whole entry, looked up): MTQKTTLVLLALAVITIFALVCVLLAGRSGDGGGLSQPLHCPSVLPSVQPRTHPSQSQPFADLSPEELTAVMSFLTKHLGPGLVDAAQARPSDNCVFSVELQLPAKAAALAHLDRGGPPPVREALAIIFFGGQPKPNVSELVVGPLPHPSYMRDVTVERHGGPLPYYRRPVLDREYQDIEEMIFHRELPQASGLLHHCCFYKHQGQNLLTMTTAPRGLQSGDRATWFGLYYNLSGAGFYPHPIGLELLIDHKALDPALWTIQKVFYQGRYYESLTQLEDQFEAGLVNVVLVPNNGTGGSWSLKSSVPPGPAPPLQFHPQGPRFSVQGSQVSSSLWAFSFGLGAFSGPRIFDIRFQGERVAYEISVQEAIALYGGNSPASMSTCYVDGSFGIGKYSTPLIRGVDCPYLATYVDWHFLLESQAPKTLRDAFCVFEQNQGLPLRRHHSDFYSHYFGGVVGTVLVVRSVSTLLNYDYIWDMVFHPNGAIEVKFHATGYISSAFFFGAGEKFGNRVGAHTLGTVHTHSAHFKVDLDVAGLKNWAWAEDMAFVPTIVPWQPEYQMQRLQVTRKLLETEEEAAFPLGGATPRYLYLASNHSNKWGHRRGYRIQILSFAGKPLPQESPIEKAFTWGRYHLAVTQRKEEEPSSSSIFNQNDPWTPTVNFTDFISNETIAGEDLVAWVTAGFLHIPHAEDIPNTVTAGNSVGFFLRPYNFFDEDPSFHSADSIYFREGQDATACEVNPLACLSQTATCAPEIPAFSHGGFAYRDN
UniProt O08590, sequence (whole entry, looked up): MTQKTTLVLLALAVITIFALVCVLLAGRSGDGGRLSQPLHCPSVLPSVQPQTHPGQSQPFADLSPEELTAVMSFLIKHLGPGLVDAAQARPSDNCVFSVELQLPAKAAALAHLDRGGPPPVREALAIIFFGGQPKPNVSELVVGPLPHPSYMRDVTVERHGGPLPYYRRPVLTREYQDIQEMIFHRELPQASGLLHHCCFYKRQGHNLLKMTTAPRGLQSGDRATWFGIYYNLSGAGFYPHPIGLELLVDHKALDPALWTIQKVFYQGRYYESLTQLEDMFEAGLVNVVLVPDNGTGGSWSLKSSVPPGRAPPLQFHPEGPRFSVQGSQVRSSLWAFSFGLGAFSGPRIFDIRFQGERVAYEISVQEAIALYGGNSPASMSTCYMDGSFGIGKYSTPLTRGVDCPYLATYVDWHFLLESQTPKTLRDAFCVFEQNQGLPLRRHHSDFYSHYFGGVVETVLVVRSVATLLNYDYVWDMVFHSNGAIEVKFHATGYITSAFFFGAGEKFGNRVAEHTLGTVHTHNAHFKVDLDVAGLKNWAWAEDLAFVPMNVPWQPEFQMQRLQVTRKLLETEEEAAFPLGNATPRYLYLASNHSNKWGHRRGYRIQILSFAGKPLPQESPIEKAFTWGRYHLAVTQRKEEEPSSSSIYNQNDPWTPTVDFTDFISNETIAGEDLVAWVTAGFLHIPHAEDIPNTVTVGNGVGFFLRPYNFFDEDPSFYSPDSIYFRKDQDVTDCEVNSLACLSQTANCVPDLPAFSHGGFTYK
UniProt Q9H2X6, sequence (whole entry, looked up): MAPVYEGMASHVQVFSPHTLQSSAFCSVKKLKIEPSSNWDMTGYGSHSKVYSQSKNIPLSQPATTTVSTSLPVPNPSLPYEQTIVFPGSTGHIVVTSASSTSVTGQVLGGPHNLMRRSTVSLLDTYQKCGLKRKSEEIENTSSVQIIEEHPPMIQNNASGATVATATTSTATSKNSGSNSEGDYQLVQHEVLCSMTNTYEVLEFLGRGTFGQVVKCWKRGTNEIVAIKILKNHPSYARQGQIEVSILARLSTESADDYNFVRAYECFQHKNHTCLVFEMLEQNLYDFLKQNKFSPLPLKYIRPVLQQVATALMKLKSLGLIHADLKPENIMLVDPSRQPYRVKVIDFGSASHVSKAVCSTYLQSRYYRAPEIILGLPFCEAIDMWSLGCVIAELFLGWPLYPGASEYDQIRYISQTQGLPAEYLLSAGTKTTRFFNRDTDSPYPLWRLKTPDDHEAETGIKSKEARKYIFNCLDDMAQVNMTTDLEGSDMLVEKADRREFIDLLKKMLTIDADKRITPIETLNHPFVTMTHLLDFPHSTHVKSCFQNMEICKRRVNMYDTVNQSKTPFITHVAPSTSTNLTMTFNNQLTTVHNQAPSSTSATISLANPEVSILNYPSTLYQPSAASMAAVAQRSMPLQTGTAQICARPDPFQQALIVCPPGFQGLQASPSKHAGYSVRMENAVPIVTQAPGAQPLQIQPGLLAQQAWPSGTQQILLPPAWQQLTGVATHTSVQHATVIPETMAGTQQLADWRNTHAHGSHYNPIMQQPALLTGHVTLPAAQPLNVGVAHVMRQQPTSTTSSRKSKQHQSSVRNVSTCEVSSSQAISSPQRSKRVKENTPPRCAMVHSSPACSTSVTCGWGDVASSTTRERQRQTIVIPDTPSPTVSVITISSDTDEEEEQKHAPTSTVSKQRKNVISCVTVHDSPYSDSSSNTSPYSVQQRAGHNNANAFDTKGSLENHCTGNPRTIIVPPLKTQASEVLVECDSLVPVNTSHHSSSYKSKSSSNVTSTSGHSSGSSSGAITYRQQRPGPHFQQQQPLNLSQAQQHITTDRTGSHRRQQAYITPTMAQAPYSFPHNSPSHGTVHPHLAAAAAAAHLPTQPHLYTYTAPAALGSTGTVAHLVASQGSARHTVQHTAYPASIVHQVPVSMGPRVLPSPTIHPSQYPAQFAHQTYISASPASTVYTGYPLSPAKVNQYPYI

Block 1 — mode: degrader; endpoint: DC50
SMILES: Cn1cc(-c2cccc(CN3CCC4(CC3)COc3c4ccc4c3CN([C@H]3CCC(=O)NC3=O)C4=O)c2)cn1
Target: CRBN/Zinc finger protein Helios (Homo sapiens, UniProt Q96SW2+Q9UKS7)
UniProt Q96SW2, sequence (whole entry, looked up): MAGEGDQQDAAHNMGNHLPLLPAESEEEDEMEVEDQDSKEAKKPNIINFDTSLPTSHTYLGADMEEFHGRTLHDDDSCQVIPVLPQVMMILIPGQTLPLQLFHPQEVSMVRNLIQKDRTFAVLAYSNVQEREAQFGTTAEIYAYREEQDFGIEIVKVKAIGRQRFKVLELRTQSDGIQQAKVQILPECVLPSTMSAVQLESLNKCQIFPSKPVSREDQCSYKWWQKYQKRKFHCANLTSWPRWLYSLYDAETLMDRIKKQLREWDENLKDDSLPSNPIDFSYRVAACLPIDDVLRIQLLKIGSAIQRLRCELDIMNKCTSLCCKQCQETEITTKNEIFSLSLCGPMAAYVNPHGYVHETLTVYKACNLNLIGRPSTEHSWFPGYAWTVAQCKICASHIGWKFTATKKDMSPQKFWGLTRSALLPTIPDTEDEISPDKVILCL
UniProt Q9UKS7, sequence (whole entry, looked up): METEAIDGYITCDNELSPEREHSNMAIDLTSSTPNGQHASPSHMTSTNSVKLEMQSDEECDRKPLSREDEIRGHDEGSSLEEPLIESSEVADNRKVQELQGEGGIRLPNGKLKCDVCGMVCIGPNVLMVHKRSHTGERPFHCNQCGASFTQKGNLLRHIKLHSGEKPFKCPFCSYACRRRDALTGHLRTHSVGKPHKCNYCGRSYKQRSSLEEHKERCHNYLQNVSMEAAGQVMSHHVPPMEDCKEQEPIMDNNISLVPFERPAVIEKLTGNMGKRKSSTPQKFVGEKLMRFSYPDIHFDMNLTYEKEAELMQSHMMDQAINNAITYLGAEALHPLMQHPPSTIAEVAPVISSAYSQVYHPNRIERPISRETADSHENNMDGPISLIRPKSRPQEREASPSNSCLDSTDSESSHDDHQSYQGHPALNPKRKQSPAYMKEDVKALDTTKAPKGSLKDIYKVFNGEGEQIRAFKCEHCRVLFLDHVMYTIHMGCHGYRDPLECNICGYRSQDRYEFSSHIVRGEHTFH
flow cytometry, measured: Helios; human primary regulatory T cells; 6 h: ~6 nM
Western blot, measured: Helios; Jurkat, CRBN expressing: < 37.4 nM
protein level: ~6 nM

Block 2 — concentration: 1 µM; endpoint: remaining binding
SMILES: CC[C@@]1(c2cccc(C(F)(F)F)c2)C2=C(Nc3n[nH]cc31)[C@H](F)C(C)(C)CC2=O (single isomer, unassigned)
MAP4K4 (Homo sapiens, UniProt O95819); kinase binding, KINOMEscan; reference: DMSO control: 92%
PTK6 (Homo sapiens, UniProt Q13882); kinase binding, KINOMEscan; reference: DMSO control: 85%
GRK3 (Homo sapiens, UniProt P35626); kinase binding, KINOMEscan; reference: DMSO control: 65%
PRKAA2 (Homo sapiens, UniProt P54646); kinase binding, KINOMEscan; reference: DMSO control: 100%
FES (Homo sapiens, UniProt P07332); binding, competition with immobilised ligand: 99%
HIPK2 (Homo sapiens, UniProt Q9H2X6); binding, competition with immobilised ligand: 79%
BMX (Homo sapiens, UniProt P51813); binding, competition with immobilised ligand: 100%
FLT3 ITD, human; KINOMEscan: 100%

Block 3 — SMILES: CS(=O)(=O)c1ccc(OC/C(=C/F)CN)cc1.Cl; endpoint: inhibition
MAOA: Amine oxidase [flavin-containing] A (MAOA, Homo sapiens, UniProt P21397)
UniProt P21397, sequence (whole entry, looked up): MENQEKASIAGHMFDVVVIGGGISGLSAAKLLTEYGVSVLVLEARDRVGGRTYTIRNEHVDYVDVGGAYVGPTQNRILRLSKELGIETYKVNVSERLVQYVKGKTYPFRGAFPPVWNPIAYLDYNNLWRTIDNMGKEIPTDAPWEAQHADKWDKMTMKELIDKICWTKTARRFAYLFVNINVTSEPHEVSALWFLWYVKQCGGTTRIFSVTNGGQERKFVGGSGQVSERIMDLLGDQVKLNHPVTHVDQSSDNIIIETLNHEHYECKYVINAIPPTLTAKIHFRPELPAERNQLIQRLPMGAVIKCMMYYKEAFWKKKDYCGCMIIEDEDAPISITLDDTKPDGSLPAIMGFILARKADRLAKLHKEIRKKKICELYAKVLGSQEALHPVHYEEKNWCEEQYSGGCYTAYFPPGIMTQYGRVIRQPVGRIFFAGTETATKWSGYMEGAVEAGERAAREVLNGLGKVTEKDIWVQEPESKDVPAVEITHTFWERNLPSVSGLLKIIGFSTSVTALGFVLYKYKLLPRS
MAOA; enzyme activity, inhibitor; 0.1235 µM: -0.859% and -0.0778% and 6.07% and 4.42% and -0.432%
Amine oxidase [copper-containing] 3 (Mus musculus, UniProt O70423); mouse adipose tissue; 0.0002 µM: 5.43%
Amine oxidase [copper-containing] 3 (Rattus norvegicus, UniProt O08590); rat adipose tissue; 0.037 µM: 94.5%
Myeloperoxidase (MPO, Homo sapiens, UniProt P05164); enzyme activity, inhibitor, fluorescence; 3.333 µM: -5.88% and 0.726% and 0.853%
Amine oxidase [copper-containing] 3 (Mus musculus, UniProt O70423); mouse adipose tissue; 1 µM: 99%
Amine oxidase [copper-containing] 3 (Mus musculus, UniProt O70423); mouse adipose tissue; 3 µM: 99.6%
MAOA; enzyme activity, inhibitor; 500 pM: 2.13% and -4.66% and -5.53% and -4.93% and 4.14%
AOC1 (Homo sapiens, UniProt P19801); enzyme activity, inhibitor; 200 pM: -14.5%

Single results of other studies
CCCN1C(=O)C(O)(C(=O)O)Oc2cc(F)ccc21 (centres unmarked) — Kd (Dihydroxy-acid dehydratase, chloroplastic (DHAD, Arabidopsis thaliana, UniProt Q9LIR4); microscale thermophoresis): 2370 nM

A few entries again (block 3):
MAOA; enzyme activity, inhibitor; 0.1235 µM: -0.859% and -0.0778% and 6.07% and 4.42% and -0.432%
Amine oxidase [copper-containing] 3 (Mus musculus, UniProt O70423); mouse adipose tissue; 0.0002 µM: 5.43%
Amine oxidase [copper-containing] 3 (Rattus norvegicus, UniProt O08590); rat adipose tissue; 0.037 µM: 94.5%
